Experimental data gathered from unrelated publications.
Parts stem from different laboratories: compare values within a part only. Changes are numbered by the printed parent chain.

Block 1 — target: UBE2N UBC core domain (UniProt P61088); method: yeast two-hybrid; sample: yeast; notes: mostly zero background; baseline: not given; reading: higher = stronger interaction
B1: CUL9 RING domain (UniProt Q8IWT3); chain AQAVPVRPDHCPVCVSPLGCDDDLPSLCCMHYCCKSCWNEYLTTRIEQNLVLNCTCPIADCPAQPTGAFIR
B2: TRIM63 RING domain (UniProt Q969Q1); chain PMENLEKQLICPICLEMFTKPVVILPCQHNLCRKCANDIFQAANPYWTSRGSSVSMSGGRFRCPTCRHEVIMDRHGV
B3: MID1 RING domain (UniProt O15344); chain METLESELTCPICLELFEDPLLLPCAHSLCFNCAHRILVSHCATNESVESITAFQCPTCRHVITLSQRGL
B4: PHF21A RING domain (UniProt Q96BD5); chain SPTSTDGDIHEDFCSVCRKSGQLLMCDTCSRVYHLDCLDPPLKTIPKGMWICPRCQDQMLKKEEAIPW
B5: ZNF598 RING domain (UniProt Q86UK7); chain AAAPERGGGSCVLCCGDLEATALGRCDHPVCYRCSTKMRVLCEQRYCAVCREELRQVVFGK
Construct (chain): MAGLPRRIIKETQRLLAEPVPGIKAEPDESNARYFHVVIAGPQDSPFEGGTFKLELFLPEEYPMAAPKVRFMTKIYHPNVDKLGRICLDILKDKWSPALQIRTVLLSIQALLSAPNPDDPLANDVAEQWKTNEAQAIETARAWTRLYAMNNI
| Sequence | lacZ reporter activity |
| --- | --- |
| YWAMDSTFELCKICAESNKDVKIEPCGHLLCSCCLAAWQHSDSQTCPFCRCEIKGWEAVS (CBLC RING domain (UniProt Q9ULV8)) | 0 |
| FPEHFVKSISCQICEHILADPVETNCKHVFCRVCILRCLKVMGSYCPSCRYPCFPTDLES (RAG1 RING domain (UniProt P15918)) | 0 |
| B1 (CUL9 RING domain) | 0 |
| DAIPSLSECQCGICMEILVEPVTLPCNHTLCKPCFQSTVEKASLCCPFCRRRVSSWTRYH (RNF168 RING domain (UniProt Q8IYW5)) | 0 |
| QLRRLQEERTCKVCMDKEVSIVFIPCGHLVVCKDCAPSLRKCPICRSTIKGTVRTF (BIRC3 RING domain (UniProt Q13489)) | 2620 |
| DDENSDNSNECVVCLSDLRDTLILPCRHLCLCTSCADTLRYQANNCPICRLPFRALLQIR (MGRN1 RING domain (UniProt O60291)) | 0 |
| EDEVSDNSAECVVCLSDVRDTLILPCRHLCLCNTCADTLRYQANNCPICRLPFRALLQIR (RNF157 RING domain (UniProt Q96PX1)) | 0 |
| B2 (TRIM63 RING domain) | 0 |
| B3 (MID1 RING domain) | 0 |
| QHHELTSLFECPVCFDYVLPPILQCQAGHLVCNQCRQKLSCCPTCRGALTPSIRNL (SIAH2 RING domain (UniProt O43255)) | 0 |
| KTLSRFGIQPCSICLGDAKDPVCLPCDHVHCLRCLRAWFASEQMICPYCLTALPDEFSPA (RNF213 RING domain (UniProt Q63HN8)) | 0 |
| B4 (PHF21A RING domain) | 0 |
| B5 (ZNF598 RING domain) | 0 |
| FASPPDSNFVCSVCHGVLKRPARLPCSHIFCKKCILRWLARQKTCPCCRKEVKRKKVVH (RNF151 RING domain (UniProt Q2KHN1)) | 0 |

Block 2 — target: CCNE2, cyclin fold, Cln2 fusion (human); method: yeast growth competition, sequencing; sample: yeast; notes: strong parent motif; baseline: not given; reading: higher = stronger binding
Starting sequence: CDC25A docking peptide (human); PPHRRRLLFACSP
| Substitution | normalised enrichment score |
| --- | --- |
| PPHRGRLLFACSP [R5G] | 0.466 |
| PPHRRRDLFACSP [L7D] | 0.0953 |
| PPHRRRLLFACAP [S12A] | 1.82 |
| PPGRRRLLFACSP [H3G] | 0.985 |
| WPHRRRLLFACSP [P1W] | 1.22 |
| PPHRARLLFACSP [R5A] | 1.05 |
| PQHRRRLLFACSP [P2Q] | 1.71 |
| PPHRQRLLFACSP [R5Q] | 1.03 |
| PPHRRRLLFADSP [C11D] | 2.37 |
| PPHRRRLLFAPSP [C11P] | 3.25 |
| PHHRRRLLFACSP [P2H] | 2.57 |
| PPHRRRLCFACSP [L8C] | 2.4 |
| PPYRRRLLFACSP [H3Y] | 2.66 |
| PGHRRRLLFACSP [P2G] | 2.01 |
| PPHRRRLLFHCSP [A10H] | 2 |
| PPHRRRLLFACNP [S12N] | 2.65 |
| PPHRRRVLFACSP [L7V] | 0.974 |
| PPHRRRGLFACSP [L7G] | 0.422 |
| PPHRRRLRFACSP [L8R] | 1.75 |
| PPHTRRLLFACSP [R4T] | 1.27 |
| PPHRRRLLWACSP [F9W] | 1.1 |
| PPHRRRLLFFCSP [A10F] | 1.77 |
| PPKRRRLLFACSP [H3K] | 1.09 |
| PPHRRRLLFAHSP [C11H] | 2.36 |
| PPHRRRLLFACDP [S12D] | 2.26 |

Block 3 — method: protein binding microarray; form: double-stranded DNA, one strand shown; sample: in vitro; tested at: not given; baseline: not given; reading: higher = stronger binding
Target: Histone acetyltransferase KAT6A, both winged helices, GST fusion (KAT6A, Homo sapiens, UniProt Q92794, residues 1-181)
Notes: 8-mer, flanks averaged, mean of 2 arrays, mostly near background
Target sequence (chain): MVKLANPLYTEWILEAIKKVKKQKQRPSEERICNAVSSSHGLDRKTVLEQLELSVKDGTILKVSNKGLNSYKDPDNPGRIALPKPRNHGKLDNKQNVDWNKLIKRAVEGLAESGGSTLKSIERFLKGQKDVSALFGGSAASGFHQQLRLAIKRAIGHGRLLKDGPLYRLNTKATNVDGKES
| Sequence | E-score |
| --- | --- |
| ATACGTCG | 0.0601 |
| GCAGTTAA | 0.0423 |
| CATCCGAG | 0.0179 |
| CTGCTACC | -0.16 |
| CGCGTTCA | 0.248 |
| GGCAAGCA | -0.0808 |
| GGAGGTAA | -0.247 |
| AAGGTGAA | -0.0594 |
| GACGGGGC | 0.134 |
| AAGTATGC | -0.028 |
| GCAAGCTA | -0.0709 |
| ATTCTAGG | -0.0794 |
| ACTCAGGC | -0.0343 |
| GCGCTCGA | 0.241 |
| CCGCTTCA | 0.131 |
| AGCACCTC | -0.128 |
| GACTTCGC | 0.0873 |
| ACCTTCAA | -0.177 |
| ACGCTCGG | 0.219 |
| CAAGGGGG | -0.245 |
| ACTTTCCC | -0.177 |
| AACAAGAG | -0.234 |
| AACGAACA | 0.16 |
| CGTTAGAC | 0.0573 |
| AAAGCCCG | 0.121 |

Block 4 — method: DHFR PCA, deep sequencing; sample: yeast; with: (+)-ABA 1.4 µM; baseline: wild-type fitted maximum; reading: higher = stronger binding
Target: ABI1, truncated, D143A, DHFR fusion (Arabidopsis thaliana)
Notes: methotrexate growth selection, single substitutions
Starting sequence: PYL1, truncated, DHFR fusion (Arabidopsis thaliana); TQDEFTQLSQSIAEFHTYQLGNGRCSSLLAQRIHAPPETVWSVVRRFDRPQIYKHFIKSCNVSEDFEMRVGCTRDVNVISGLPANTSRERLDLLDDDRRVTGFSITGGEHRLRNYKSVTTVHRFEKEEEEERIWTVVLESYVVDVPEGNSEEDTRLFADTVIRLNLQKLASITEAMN
| Substitution | relative binding score [%] |
| --- | --- |
| V143K | -9.45 |
| L112C | -11.5 |
| R24E | 44 |
| E151P | 55.6 |
| N22Q | 64.7 |
| E4D | 53.9 |
| N77W | 30.1 |
| E67A | 38.3 |
| N77P | -5.15 |
| H16A | 1.58 |
| I79M | 20.8 |
| R49E | 42.8 |
| D97L | 30.3 |
| R132I | 48.1 |
| N77Q | 74.4 |
| V62T | 28.7 |
| F5G | 23.4 |
| M68W | 1.72 |
| G102C | 3.52 |
| E14C | 6.28 |
| N165D | 23.4 |
| H110V | 4.5 |
| M68P | 23.4 |
| M68K | 6.09 |
| I12K | -0.912 |

Block 5 — method: protein-binding microarray; form: double-stranded DNA, one strand shown; sample: in vitro; tested at: 2200 nM top; notes: 60-bp whole probe; with: salmon DNA 0.4 mg/ml; baseline: random background probes; reading: higher = stronger binding; constant ends, left off below: GCCTAGCAC … GTCTTGATTCGCTTGACGCTGCTG
Target: Interferon regulatory factor 7, full length, phosphomimetic (IRF7, Homo sapiens, UniProt Q92985, residues 1-503, S471D/S472D/S475D/S476D/S477D/S483D/S484D/S487D)
Target sequence (chain): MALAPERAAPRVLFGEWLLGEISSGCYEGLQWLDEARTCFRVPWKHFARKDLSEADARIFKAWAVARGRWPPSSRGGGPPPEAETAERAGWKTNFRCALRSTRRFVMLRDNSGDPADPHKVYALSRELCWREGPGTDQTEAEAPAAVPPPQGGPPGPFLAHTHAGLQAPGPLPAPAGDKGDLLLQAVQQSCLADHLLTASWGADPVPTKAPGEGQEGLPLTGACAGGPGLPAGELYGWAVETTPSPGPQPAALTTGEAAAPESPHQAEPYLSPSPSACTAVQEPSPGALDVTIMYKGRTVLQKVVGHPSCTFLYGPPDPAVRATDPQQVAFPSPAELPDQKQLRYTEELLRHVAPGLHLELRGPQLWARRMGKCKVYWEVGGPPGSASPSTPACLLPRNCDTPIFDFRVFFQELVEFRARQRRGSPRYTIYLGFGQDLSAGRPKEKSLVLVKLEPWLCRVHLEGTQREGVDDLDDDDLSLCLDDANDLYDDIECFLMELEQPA
| Sequence | fitted relative affinity |
| --- | --- |
| GACGGTATCGGTTTCGGCACGTGCTAG | 2.68 z-score |
| ATATATATTATATATTTATGTGTGCTA | 0.461 z-score |
| GACTGTCTCGGTATCGGGACGTGCTAG | 0.228 z-score |
| TCCTGCTGTACCCCTAGGGCGTGCTAG | -0.333 z-score |
| TTGGATTTCAGTCTCGATTAGTGCTAG | 1.19 z-score |
| GGTTTTCTCTATTGCTTTCTGTGCTAG | 2.88 z-score |
| TTAGATTTCGGCTATCGATTAGTGCTA | 1.12 z-score |
| CTAGGACTGGGTCTCGGTTAGTGCTAG | -0.741 z-score |
| TCACTTTTGCTTTACTGACTGTGCTAG | 7.23 z-score |
| TTAGATATCAGTATCGATTTGTGCTAG | 1.07 z-score |
| TTAGATATCGGGTTTCGGTTAGTGCTA | 3.91 z-score |
| TTATAACTGAGTCTCGATTAGTGCTAG | 0.0934 z-score |
| TTAGCACTGGGGTTTCGATTAGTGCTA | 2.1 z-score |
| TTAGGTTTCGGTTTCGGGTAGTGCTAG | 15.6 z-score |
| GACGGTATCCTTCTCCTGCCGTGCTAG | 0.764 z-score |
| TTAGATTTCAGTCTCGCTTAGTGCTAG | 0.984 z-score |
| TCTCTTTTCACTTTCTTTACGTGCTAG | 5.73 z-score |
| GACTAACTGGGGTTTCGAGACGTGCTA | 1.33 z-score |
| GTAGGTTTCGGACTGGGTTAGTGCTAG | 3.25 z-score |
| TTAGAACCGGGGACTGGATTAGTGCTA | -0.679 z-score |
| CTTGCTTGGTGTCTCTGGCCGTGCTAG | 0.145 z-score |
| TTAGGTATCCTTATCCTGTAGTGCTAG | 0.73 z-score |
| TCATGGATATATATCATACTGTGCTAG | 0.667 z-score |
| TTAGGTCTCCTACTGCTTGAGTGCTAG | 0.283 z-score |
| GACTGTATCCTTCTCCTGACGTGCTAG | 1.7 z-score |

For quick reference, copied from above (block 3):
| Sequence | E-score |
| --- | --- |
| AAGTATGC | -0.028 |
| GCAAGCTA | -0.0709 |
| AACAAGAG | -0.234 |
| CATCCGAG | 0.0179 |
| CGTTAGAC | 0.0573 |
| CGCGTTCA | 0.248 |
| ACTCAGGC | -0.0343 |
| ATACGTCG | 0.0601 |
| CTGCTACC | -0.16 |
| AAAGCCCG | 0.121 |
